Results of several laboratories.
Each numbered part is a random draw from the data of one study; scales do not carry over between parts.

Series 1
Target: Centromere-binding protein 1, full length, His-tagged (CBF1, Saccharomyces cerevisiae, UniProt P17106, residues 1-351)
Sequence of UniProt P17106 (whole entry, looked up): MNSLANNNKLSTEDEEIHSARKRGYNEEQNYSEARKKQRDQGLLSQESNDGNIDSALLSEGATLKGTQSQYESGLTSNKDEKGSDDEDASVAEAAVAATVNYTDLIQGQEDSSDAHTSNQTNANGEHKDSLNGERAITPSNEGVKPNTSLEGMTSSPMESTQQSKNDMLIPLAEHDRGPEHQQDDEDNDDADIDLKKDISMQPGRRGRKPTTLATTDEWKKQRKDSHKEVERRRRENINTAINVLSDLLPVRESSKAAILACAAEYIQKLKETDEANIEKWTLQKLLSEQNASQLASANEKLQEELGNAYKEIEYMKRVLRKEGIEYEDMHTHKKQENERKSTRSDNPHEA
Technique: competition protein-binding microarray
Molecule type: double-stranded DNA, one strand shown
Matrix: in vitro
Concentration: 2 µM
Setting: whole 60-bp probe, lowest competitor level
Added: Pho4 competitor, 0.05 µM
Reading: higher = stronger binding
Measurement: fluorescence intensity
Shared flanks, not repeated: … GTCTTGATTCGCTTGACGCTGCTG
GAGAACGCAGAGGACAACGTGGCCGTTGGGTTGATA: 73 a.u.
CTCTTCTACAGTTACCACATGCAAAAGTCTTTCCTG: 112 a.u.
AAAGCGGTAATTTGCTAGGTGGGTGCAGATATCTAT: 81.3 a.u.
CTTTTCATTAGGCTTCCTAATTATACCCATCTATGC: 64.9 a.u.
TGTGTTCTAGGCTTGAACGTGCCAGCAGCATATCGA: 76.4 a.u.
TCGAACAACCTTCCCAACGTGAAGAAGCTAAGAAAG: 77.2 a.u.
CCAGGCTTAGATTTTCATGTGAAAAGATAATGTGTA: 90.3 a.u.
AATCTCGAGTAGGTGCACGTGGTACCTACCTCGAGA: 1820 a.u.
CGGGGTTAAGTTTGTCGCGTGGGTGGCTTGCAGCAG: 105 a.u.
TTCCCGGGAGGGGTGGGCGTGCGATTGGAATTAGTC: 133 a.u.
AATGAGTTCACTCACCACGTTAGAGTCTCCCAATAT: 84.7 a.u.
TCTCCTAGGGGCAGTCTCGTGCTAATTAGCAGCTTT: 225 a.u.
CGGGGTTAAGTTTGGCGTGTGGGTGGCTTGCAGCAG: 73.4 a.u.
GCCTTACATATTTGTCATGCTTTGACTATTGCTATC: 140 a.u.
CCTAGGACTTTGAAGGGCGTGCTAAGTGGGGAGCCG: 62.7 a.u.
CCCTTCCAAAACTATCACATGTAACCATGATGAACC: 433 a.u.
GTCTTGTCTCATTTTCACGTGTCTTTCCCCACTTCA: 887 a.u.
GAGCTCTTTGGCGGCAACGTGATGGGCGAGTTGGTT: 253 a.u.
TACAGCTGCCATTTGACCGTGCAATACAGCAAATTA: 77.5 a.u.

Series 2
Target: Interferon regulatory factor 7, full length, phosphomimetic (IRF7, Homo sapiens, UniProt Q92985, residues 1-503, S471D/S472D/S475D/S476D/S477D/S483D/S484D/S487D)
Technique: protein-binding microarray
Molecule type: double-stranded DNA, one strand shown
Matrix: in vitro
Concentration: 2200 nM top
Setting: 60-bp whole probe
Added: salmon DNA 0.4 mg/ml
Baseline: random background probes
Reading: higher = stronger binding
Measurement: fitted relative affinity
Shared flanks, not repeated: GCCTAGCAC … GTCTTGATTCGCTTGACGCTGCTG
Target sequence (chain): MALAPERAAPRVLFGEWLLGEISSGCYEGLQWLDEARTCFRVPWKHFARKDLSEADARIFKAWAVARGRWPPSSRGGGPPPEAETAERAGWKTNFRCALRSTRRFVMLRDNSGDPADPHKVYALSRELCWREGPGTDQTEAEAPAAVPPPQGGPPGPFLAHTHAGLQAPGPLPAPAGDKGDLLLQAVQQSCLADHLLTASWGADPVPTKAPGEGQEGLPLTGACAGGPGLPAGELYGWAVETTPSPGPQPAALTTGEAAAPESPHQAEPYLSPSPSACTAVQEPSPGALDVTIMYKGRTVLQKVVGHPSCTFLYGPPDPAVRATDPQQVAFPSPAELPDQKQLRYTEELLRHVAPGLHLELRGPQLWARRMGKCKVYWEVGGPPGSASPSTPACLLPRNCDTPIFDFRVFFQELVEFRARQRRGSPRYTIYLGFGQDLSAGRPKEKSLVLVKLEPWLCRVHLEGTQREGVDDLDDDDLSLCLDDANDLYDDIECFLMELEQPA
TTAGAGCTGAGTATCGATTAGTGCTAG: -0.398 z-score
GACGGTTTCGGTTCCGGGTCGTGCTAG: 12.2 z-score
TTAGAACGGAGTCTCGATTAGTGCTAG: -0.158 z-score
TCAGTTCTGCTTCTTAGACTGTGCTAG: 1.66 z-score
CTAGGACTGGACTTTCGGTTAGTGCTA: 4.7 z-score
TTAGAACTGGGATTTCGATTAGTGCTA: 1.02 z-score
GACGGTATCGGGTTACGGGACGTGCTA: 0.646 z-score
TTAGGCATCGGTCTCGGTTAGTGCTAG: -0.0422 z-score
TTAGGTTTCGGCTTTCGGTTAGTGCTA: 8.46 z-score
GACGGTTTCCTTTTCCTGACGTGCTAG: 5.66 z-score
TTAGGTCTCATACTGCTTTAGTGCTAG: 0.578 z-score
GACGGTATCGCTATCGGGACGTGCTAG: 0.349 z-score
TTAGGTATCAGGACTGGGTTAGTGCTA: -0.394 z-score
AGTCTCTGCAGGGAGAGAGCGTGCTAG: -0.639 z-score
GTCGGTTTCGACTATCGGGACGTGCTA: 4.76 z-score
TCAATTTTGCTTTCATTACTGTGCTAG: 3.12 z-score

Series 3
Target: RNA binding protein fox-1 homolog 2, RRM domain, GST-SBP tag (RBFOX2, Homo sapiens, UniProt O43251-10, residues 100-194)
Technique: RNA Bind-n-Seq
Molecule type: RNA
Matrix: in vitro
Concentration: 365 nM
Setting: natural RNA segment, single round, ends assumed
Baseline: no-protein control
Reading: higher = stronger binding
Measurement: RBNS enrichment (R)
Shared flanks, not repeated: GGGAGUUCUACAGUCCGACGAUC … UGGAAUUCUCGGGUGCCAA
GCUGAAUUUAUAUUUGUAAAUUUAUUUUGCCAUCUUUAAGUCACAUUUUUGUUUCAUUGUUUAAAAGUACUGAAAUGUUCCACCCUGUUAUGUUUUCCUGUACUAGAUGG: 1.2
UUUGUUAGAUCAGCAUAUAAUUCAUAUAACUACUUAAGUUUUUAUGAUGUAUCAUCAAUUUUAUUACUUUCUGUCUAUGUUUGCAAAAGUAGUAGAGUUUAAUUCACCAU: 0.587
UUUAGGCUAAUUAUACACGUCUGUCUGUGCCAUGAGUAAGUGGACUGUAGUUGGACCAAAAAAACAAAUGAGCCGUUGGACCAUUUGAGCAGUCAGUUUCUGGUCCUUAG: 0.839
GAGACCCUGGGAGACCAAGGCAUUCCCUGAAUAUCGUCCCCUUGCCUUCCCUACCGGCCAUUUCCUUUAGCUCCCUCAAGGCUCUUGGGGAGUUUGCUUGGGGCUCUAAG: 0.467
UACCUAAGCCCAUAAUCGAGCUAGUAUCUUGGAUGGUAUACAACCAAGAACCAGCUAAACAAUUAGAUACAGUUUAAUAUUUGUACCUCCAAAUCUAUCACUUCCUUCCU: 0.408
CUCACUCUCGAAUGCAAGUGGGAGAGGGAAAAUGACUCGGGACGCCAUUGUAACGGUUCCUGGAAGCUGGGCCCUCUCAUUGGCAUAUACAGUACUCCUCGCUGCAGGGC: 1.6
UUUAAAAUACUUUGCGCCUUGCUUUGAUAAUUUGUAUUAUGUAUCCAAACUGAAAUUAUCUGCUUUCUGCAUUAGAAUGUAAGCCCCCUGAGGGUUGAGUCAGUCUGUCU: 0.413
UUGUGGGGUGACGAGGGGUGUAGAAUACCCCGAACCCUCUUCCAGGACAAAGCCAGGAGUGGAGCUGAGGAAGACUAAGGUAGAAACUCUGUGCCCAAGCUGACACAGAA: 0.471

Series 4
Target: Histone acetyltransferase KAT6A, winged helix 1, GST fusion (KAT6A, Homo sapiens, UniProt Q92794, residues 1-85)
Technique: protein binding microarray
Molecule type: double-stranded DNA, one strand shown
Matrix: in vitro
Concentration: not given
Setting: 8-mer, flanks averaged, mean of 2 arrays, mostly near background
Baseline: not given
Reading: higher = stronger binding
Measurement: E-score
Target sequence (chain): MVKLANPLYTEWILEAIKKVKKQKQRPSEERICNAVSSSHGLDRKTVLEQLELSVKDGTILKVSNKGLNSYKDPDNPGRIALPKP
ATTGGTTC: -0.203
AATATATT: -0.0397
ACTATGCG: 0.219
CCCGCGGG: 0.446
CCGATTAG: 0.0195
ACCTACAA: -0.124
TAGGCATA: -0.146
CGGTCCAA: 0.0816
GGGCTACA: -0.0588
GTCACCGA: -0.148
AAGTAGTC: 0.00702
GGTTGCCA: 0.082
ACTGAGCT: 0.0057
CCGCAACC: 0.127
ACCATTCA: -0.128
AGGGGACT: -0.271
AGCTTCCT: -0.064
CCCATATA: 0.0703

For quick reference, copied from above (series 2):
TCAGTTCTGCTTCTTAGACTGTGCTAG: 1.66 z-score
GACGGTATCGCTATCGGGACGTGCTAG: 0.349 z-score
CTAGGACTGGACTTTCGGTTAGTGCTA: 4.7 z-score
GACGGTATCGGGTTACGGGACGTGCTA: 0.646 z-score
